Measured values gathered from unrelated publications.
Parts stem from different laboratories: compare values within a part only. Changes are numbered by the printed parent chain.

Study 1
Target: NFE2L2, bZIP domain (human)
Method: DHFR protein complementation
Matrix: yeast
Notes: single substitutions, most at no-binding floor
Baseline: wild-type JUN-FOS pair
Reading: higher = stronger binding
Parent: JUN, bZIP domain (human); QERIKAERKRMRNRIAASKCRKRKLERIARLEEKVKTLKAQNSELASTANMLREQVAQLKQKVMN; partner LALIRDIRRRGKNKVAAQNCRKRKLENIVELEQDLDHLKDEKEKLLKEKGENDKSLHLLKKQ
| Change | binding fitness |
| --- | --- |
| L59R | -1.56 natural log |
| S43G | -1.37 natural log |
| R30V | -1.42 natural log |
| A49Y | -1.54 natural log |
| L45N | -1.55 natural log |
| T37L | -1.5 natural log |
| K39D | -1.53 natural log |
| S47R | -1.36 natural log |
| K34E | -1.21 natural log |
| A49E | -1.48 natural log |
| V35T | -1.49 natural log |
| I28P | -1.53 natural log |
| R30T | -1.45 natural log |
| V56E | -1.33 natural log |
| L38T | -1.48 natural log |
| T48P | -1.31 natural log |
| R30W | -1.31 natural log |
| N42K | -1.52 natural log |
| A40T | -1.42 natural log |
| S47D | -1.17 natural log |
| S47K | -1.4 natural log |
| A46G | -1.36 natural log |
| K39C | -1.59 natural log |
| K36R | -1.48 natural log |

Study 2
Target: Histone acetyltransferase KAT6A, winged helix 2, GST fusion (KAT6A, Homo sapiens, UniProt Q92794, residues 85-181)
Method: protein binding microarray
Molecule type: double-stranded DNA, one strand shown
Matrix: in vitro
Concentration: not given
Notes: 8-mer, flanks averaged, mean of 2 arrays, mostly near background
Baseline: not given
Reading: higher = stronger binding
Target sequence (chain): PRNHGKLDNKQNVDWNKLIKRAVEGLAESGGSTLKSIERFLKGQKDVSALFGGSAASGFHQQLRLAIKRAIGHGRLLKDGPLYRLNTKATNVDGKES
| Strand | E-score |
| --- | --- |
| CTAGCTTC | 0.113 |
| CTTTTTAA | 0.0791 |
| AATATCAC | 0.0265 |
| CCTCTTTC | -0.0298 |
| TATCGAAA | 0.0369 |
| AAAGCCAG | -0.0578 |
| ACCGTCTC | 0.0335 |
| GAGGACGA | 0.197 |
| TAAGCCGA | 0.116 |
| CCCGACCC | 0.114 |
| GCCCTGAA | 0.0599 |
| GACACAGA | 0.155 |
| AGCTCATG | 0.0368 |
| AAACCTAT | 0.0541 |
| CTTCCTGC | -0.0722 |
| AACGTTAA | -0.0847 |
| ACTGGAAG | 0.0175 |
| CACTTTCG | -0.126 |
| AAGCCGAA | 0.187 |
| CAGTACTA | -0.0456 |
| GGAACGAC | -0.0521 |

Study 3
Target: RNA binding protein fox-1 homolog 2, RRM domain, GST-SBP tag (RBFOX2, Homo sapiens, UniProt O43251-10, residues 100-194)
Method: RNA Bind-n-Seq
Molecule type: RNA
Matrix: in vitro
Concentration: 365 nM
Notes: natural RNA segment, single round, ends assumed
Baseline: no-protein control
Reading: higher = stronger binding
Constant ends, left off below: GGGAGUUCUACAGUCCGACGAUC … UGGAAUUCUCGGGUGCCAA
| Strand | RBNS enrichment (R) |
| --- | --- |
| GCCCUCUCGCCAGGCUGGAGUGUAGUGGCACAAUCUCAGCUCACUGCAACCUCCGCAUCCCGGGUUCAAGAGAUUCUGCCUCAGCCUCCAGAGUAGCUGGGACUACAAAC | 0.718 |
| UCAGCCGAUGACUUCAGGGUGUCAAACUGUUUUAAUUUUUCAAACAAAUGGAACAGAAGCCAUUGUGGUUCAUCCUGAUUACUUGAACGUUGCACUUGGUGGACCGUGCC | 0.433 |
| GAACCUAGUGAAUGGUAUGCUUGGGUGUUUUCCAUUGAGAGUGGAUGGACCUCUUUAUAAAGUUGGUUGCUGCAAAAUCCAGUUCUUCCAAAAGCCACUUUAUUUAGGGU | 1.32 |
| CUAGGCUGGCCAUAGACCCAGCUCUGCCUCACCCUGCCAUGUUCCAGUAAUGGAGGCCUCCAGCCUGGGCUCUAUUACAUUCUUCUCUACAGCUGCCCCAUAACCCGUGG | 0.605 |
| AAACUGUGGACGUCAGGAGGCCGAAUGCAGAAAAGUAUAUCUGGGAUGGAUGGCAGGGAAUAGAAGCUAGGACUGGAGUUCCUGUCCUGCCGCCUUGGUUCCUGCAGUGC | 0.729 |
| GGUACUCCUAUGCAAUAUUACUCAGCUUUUUUUAUUGUAAAAAGAAAAAUCAACUCACUGUUCAGUGCUGAGAGGGGAUGUAGGCCCAUGGGCACCUGGCCUCCAGGAGU | 0.458 |
| UGCAUCUCCUUCCAGGUCAGCUCAUUCACAAGAGUUGCUCCCAAGCCUGGAUGAGUUGCACCUUGCAUCUUGAGCAUGCAUUUCUCACAAUAAUUAUUAAGCUGUGUGAU | 0.845 |
| CUGCAACUAGAACCCUGGUCGCCUUCCUCUAACUGGAGGGCAAGCCUUCCUUUUCUAGGGCCAAACUCCUCUCCAAAUACUAGGUUGGGUUCAUUUAUCUUUUAAGGAGU | 0.411 |

Study 4
Target: RING finger protein unkempt homolog, zinc fingers 1-6, GST-SBP tag (UNK, Homo sapiens, UniProt Q9C0B0, residues 30-357)
Chain of UniProt Q9C0B0 (30-357, looked up): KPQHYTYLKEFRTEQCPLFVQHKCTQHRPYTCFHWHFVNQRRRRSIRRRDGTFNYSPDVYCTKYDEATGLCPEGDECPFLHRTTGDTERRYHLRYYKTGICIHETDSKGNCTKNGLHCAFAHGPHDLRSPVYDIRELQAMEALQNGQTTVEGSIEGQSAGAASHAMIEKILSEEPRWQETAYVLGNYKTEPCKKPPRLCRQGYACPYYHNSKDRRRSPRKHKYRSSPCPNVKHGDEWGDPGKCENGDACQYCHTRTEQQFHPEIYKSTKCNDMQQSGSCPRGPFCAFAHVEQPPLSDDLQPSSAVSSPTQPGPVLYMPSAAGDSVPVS
Method: RNA Bind-n-Seq
Molecule type: RNA
Matrix: in vitro
Concentration: not given
Notes: RNA with constant flanks, human and mouse sites, ends assumed
Baseline: input RNA pool
Reading: higher = stronger binding
Constant ends, left off below: GGGAGUUCUACAGUCCGACGAUC … CAACAGAGGAUUGAGCAUCA
| Strand | bound/input enrichment |
| --- | --- |
| CAUUUUAGCAUUGGAAAAGCACCACUGAAAGAUGAACAGGAAAUGAGAGCAUCUCCCAAAAUAAGUCGAAAAUGUGCUAAUAGACACACCAGGCCCAAAAAAGAAAAAUCGAGUUUUCUU | 0.139 ratio |
| GAGGAAUUUGGAGUAGUUUCAAAUACAAGAUUGAUUGCUGCUGCUACUUCUGUAUUAAAAACUAGAUUUUCAUAUGCCUUUCCAAAGGAAUUUCCUUAUAGGAUGAAUCAUAUAUUAGAA | 30.6 ratio |
| AAAUUUAAAAAUUCUUUCUGUUGUACAGAAUUAAAUGAAGAAAUCAAACAGUCUCAUUCUUUUAGUUUACAGACACCUUGUUCAAAAGGUAGUGAAUUAAGAAUGAUUAAUAAAAAUCCU | 0.444 ratio |
| AAGUGUGUUUCCACUCAAAGAAAGAAAAGGUUCACGAAGAACAUAAAUGCUGGCUUUUCCCUUAGCCCCAAUAUCAGUAAACAUCUGGCCAGCCUAUCAGUGGUUGGAAACAGGAGUCCC | 1.72 ratio |
| UCAGAUAACCUUACCCGGGCUUGUAGCCUAGUGCGGGAGGCAGCAAAGCAAGGUGCCAACAUAGUUUCUCUGCCUGAGUGCUUCAAUUCUCCAUAUGGAACAACCUACUUUCCUGACUAU | 0.243 ratio |
| GCUGAAUUAGAAAGAAUAAAGGUUGAAAAGGGACAGUUGGAAUCUACAUUAAGAGAGAAGUCGCAACAACUUGAGAGUCUCCAAGAAAUGAAAGUUAAUUUAGAGGAACAGUUAAAGAAA | 2.97 ratio |
| CCUGCGAUUGUUCAUAUAAACCACCAGCCAUACUUGGAAAGAGGAGAUGGUCCAAUUUGUCUAGUGCUGGCUCCUACCAGAGAGCUUGCGCAGCAGGUGCAGCAGGUGGCUGACGAUUAU | 0.163 ratio |
| GGUCCACAAGUUCAUCGUCAACACCCUGAAAGACGGCAGGAAAGUAGUUGUUUUGAUGGACUUGGAAGUUAUGAAAUCUGCUGAAGACGUUGGAUUAAAGAUUGGGAAUCCAGUGCCCUA | 0.282 ratio |

Study 5
Target: CCND3, cyclin fold, Cln2 fusion (human)
Method: yeast growth competition, sequencing
Matrix: yeast
Notes: weak parent motif
Baseline: not given
Reading: higher = stronger binding
Parent: CCP110 docking peptide (human); EKVKRRLDLDIDG; partner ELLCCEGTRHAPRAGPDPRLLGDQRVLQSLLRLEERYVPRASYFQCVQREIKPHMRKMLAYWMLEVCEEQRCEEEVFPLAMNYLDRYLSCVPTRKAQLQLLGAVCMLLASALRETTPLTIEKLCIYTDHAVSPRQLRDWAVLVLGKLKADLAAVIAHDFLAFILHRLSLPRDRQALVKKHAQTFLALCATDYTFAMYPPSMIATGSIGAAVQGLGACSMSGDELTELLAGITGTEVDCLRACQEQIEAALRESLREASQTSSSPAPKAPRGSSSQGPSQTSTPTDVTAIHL
| Change | normalised enrichment score |
| --- | --- |
| EKVARRLDLDIDG [K4A] | -0.0389 |
| EKVKARLDLDIDG [R5A] | 0.0962 |
| EKVKKRLDLDIDG [R5K] | 0.0422 |
| EKVKARADLDIDG [R5A L7A] | 0.223 |
| EKVKRRLDLDIDA [G13A] | 0.11 |
| EKVKRRADLDIDG [L7A] | 0.000428 |
| EKVKKRLDFDIDG [R5K L9F] | 0.155 |
| EKVKRRLDLDIAG [D12A] | 0.162 |
| EAVKRRLDLDIDG [K2A] | 0.0907 |
| EKVKRRLDADIDG [L9A] | 0.163 |

Other studies, line by line
| Molecule | target | assay | system | setting | scale | measurement | result |
| --- | --- | --- | --- | --- | --- | --- | --- |
| PhoQ, residues 284 288 289 292 302 303 NLGVHL | PhoP, residues 12 14 15 18 19 SPWRL (Escherichia coli, UniProt P23836) | Sort-seq, item: YFP reporter | E. coli | PhoQ-PhoP variant library, with: 10 µM Mg2+ | baseline: high Mg2+ state, higher = stronger signaling | fold induction | 5.86 |
